{"data": "Experimental data gathered from unrelated publications", "matrix": "plasma", "note": "Compare with care: the assays were run in different laboratories. Numbers after ± are the reported error."}
{"SMILES": "CN1C[C@H](COc2nccc3c(NCc4ccco4)cc(Cl)nc23)OC1=O", "test system": "C57BL/6 mice", "setting": "oral, 10 mg/kg", "quantity": "AUC", "value": "6.76 µM·h"}
{"SMILES": "CN(C)C(=O)c1cc2cnc(Nc3ccc(-c4ccc5c(=O)cc(N6CCOCC6)oc5c4)cc3)nc2n1C1CCCC1.Cl", "test system": "BALB/c mice", "setting": "intravenous, 2 mg/kg", "quantity": "AUC extrapolated fraction", "value": "0.1%"}
{"SMILES": "c1ccc(-c2nc(N3CCC(c4ccccn4)C3)c3ccccc3n2)nc1 (centres unmarked)", "test system": "male ICR mice", "setting": "intravenous, 0.1 mg/kg, cassette dosing", "quantity": "AUC", "value": "44.9 ng·h/mL"}
{"SMILES": "Cc1cc2sc(N)nc2c2cccnc12", "test system": "female BALB/c mice", "setting": "i.p., 30 mg/kg, observed", "quantity": "AUC extrapolated", "value": "0.293%"}
{"SMILES": "Nc1ncc(-c2ccncc2)nc1Nc1ccc2[nH]ccc2c1", "test system": "C57BL mice, male", "setting": "subcutaneous, 10 mg/kg", "quantity": "AUC", "value": "4 µM·h"}
{"SMILES": "COc1ccc2cc(CCC[18F])ccc2c1", "test system": "Balb/c mice, male", "setting": "intravenous, dose not given", "quantity": "AUC", "value": "412 ± 40 %ID·min/mL"}
{"SMILES": "CC(C)(C)c1sc2ncnc(Oc3c(F)cccc3OC(F)(F)F)c2c1-c1ccc(Cl)cc1", "test system": "wild-type mice", "setting": "intravenous, 1 mg/kg", "quantity": "AUC", "value": "2770 ng·h/mL"}
{"SMILES": "CCOc1ccc(N(C)S(=O)(=O)c2cc(Cl)sc2C(=O)Nc2cc(Cl)cc(C(=O)O)c2)cc1OC", "test system": "male C57BL/6 mice", "setting": "intraperitoneal, 10 mg/kg", "quantity": "AUC extrapolated fraction", "value": "4.8%"}
{"note": "Some of these lines once more:"}
{"SMILES": "Nc1ncc(-c2ccncc2)nc1Nc1ccc2[nH]ccc2c1", "test system": "C57BL mice, male", "setting": "subcutaneous, 10 mg/kg", "quantity": "AUC", "value": "4 µM·h"}
